# Assay results of several laboratories.
# Numbered parts are unrelated; each lists some results of a single study.
# Chain of UniProt Q13164 (whole entry, looked up): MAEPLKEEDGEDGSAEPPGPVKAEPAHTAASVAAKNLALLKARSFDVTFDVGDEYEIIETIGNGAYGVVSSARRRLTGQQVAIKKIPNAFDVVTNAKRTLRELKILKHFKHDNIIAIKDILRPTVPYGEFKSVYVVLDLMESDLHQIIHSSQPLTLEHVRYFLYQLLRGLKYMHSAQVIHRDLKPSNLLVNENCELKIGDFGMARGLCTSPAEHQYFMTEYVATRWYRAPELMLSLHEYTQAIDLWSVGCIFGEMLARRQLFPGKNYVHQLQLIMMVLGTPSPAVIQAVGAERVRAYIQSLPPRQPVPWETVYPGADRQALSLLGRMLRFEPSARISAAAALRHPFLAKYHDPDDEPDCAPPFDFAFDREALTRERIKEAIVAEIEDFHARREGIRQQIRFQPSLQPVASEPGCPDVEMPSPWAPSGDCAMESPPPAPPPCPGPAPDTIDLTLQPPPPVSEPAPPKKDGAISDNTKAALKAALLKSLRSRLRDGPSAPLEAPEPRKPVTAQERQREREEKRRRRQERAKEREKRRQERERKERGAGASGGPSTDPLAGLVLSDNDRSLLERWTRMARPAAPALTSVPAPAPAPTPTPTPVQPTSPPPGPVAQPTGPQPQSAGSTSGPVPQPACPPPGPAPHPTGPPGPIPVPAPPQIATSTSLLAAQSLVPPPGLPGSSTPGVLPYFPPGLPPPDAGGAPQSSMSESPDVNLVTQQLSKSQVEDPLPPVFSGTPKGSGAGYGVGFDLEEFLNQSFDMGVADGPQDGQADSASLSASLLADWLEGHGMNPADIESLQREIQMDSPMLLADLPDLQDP
# Chain of UniProt P42336 (whole entry, unmodified, looked up): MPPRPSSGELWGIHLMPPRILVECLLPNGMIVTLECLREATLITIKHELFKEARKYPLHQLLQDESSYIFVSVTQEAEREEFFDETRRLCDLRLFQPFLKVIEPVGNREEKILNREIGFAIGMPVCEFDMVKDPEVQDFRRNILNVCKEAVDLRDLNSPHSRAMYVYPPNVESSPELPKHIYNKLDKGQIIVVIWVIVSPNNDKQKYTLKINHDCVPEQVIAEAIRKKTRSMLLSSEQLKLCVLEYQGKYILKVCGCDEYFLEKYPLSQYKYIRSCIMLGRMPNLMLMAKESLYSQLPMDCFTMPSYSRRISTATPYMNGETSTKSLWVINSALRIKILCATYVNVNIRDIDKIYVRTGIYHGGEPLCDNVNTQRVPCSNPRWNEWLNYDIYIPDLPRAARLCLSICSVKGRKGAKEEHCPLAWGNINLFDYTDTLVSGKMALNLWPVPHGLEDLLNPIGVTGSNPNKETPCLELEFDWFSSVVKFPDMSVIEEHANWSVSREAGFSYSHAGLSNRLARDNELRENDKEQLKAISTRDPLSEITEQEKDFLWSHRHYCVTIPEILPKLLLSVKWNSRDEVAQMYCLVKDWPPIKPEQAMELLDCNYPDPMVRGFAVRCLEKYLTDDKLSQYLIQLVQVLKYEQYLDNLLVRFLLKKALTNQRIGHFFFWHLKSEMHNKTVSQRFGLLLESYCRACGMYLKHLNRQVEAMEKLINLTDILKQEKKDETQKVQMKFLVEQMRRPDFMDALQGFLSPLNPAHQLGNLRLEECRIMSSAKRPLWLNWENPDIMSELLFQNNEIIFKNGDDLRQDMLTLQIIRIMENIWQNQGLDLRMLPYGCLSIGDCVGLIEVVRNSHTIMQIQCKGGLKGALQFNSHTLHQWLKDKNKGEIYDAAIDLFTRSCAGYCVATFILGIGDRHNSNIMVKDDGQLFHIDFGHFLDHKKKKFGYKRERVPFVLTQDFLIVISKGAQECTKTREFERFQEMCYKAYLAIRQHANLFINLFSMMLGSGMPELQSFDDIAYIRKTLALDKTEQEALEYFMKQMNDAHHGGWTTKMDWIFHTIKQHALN
# Chain of UniProt O96013 (whole entry, looked up): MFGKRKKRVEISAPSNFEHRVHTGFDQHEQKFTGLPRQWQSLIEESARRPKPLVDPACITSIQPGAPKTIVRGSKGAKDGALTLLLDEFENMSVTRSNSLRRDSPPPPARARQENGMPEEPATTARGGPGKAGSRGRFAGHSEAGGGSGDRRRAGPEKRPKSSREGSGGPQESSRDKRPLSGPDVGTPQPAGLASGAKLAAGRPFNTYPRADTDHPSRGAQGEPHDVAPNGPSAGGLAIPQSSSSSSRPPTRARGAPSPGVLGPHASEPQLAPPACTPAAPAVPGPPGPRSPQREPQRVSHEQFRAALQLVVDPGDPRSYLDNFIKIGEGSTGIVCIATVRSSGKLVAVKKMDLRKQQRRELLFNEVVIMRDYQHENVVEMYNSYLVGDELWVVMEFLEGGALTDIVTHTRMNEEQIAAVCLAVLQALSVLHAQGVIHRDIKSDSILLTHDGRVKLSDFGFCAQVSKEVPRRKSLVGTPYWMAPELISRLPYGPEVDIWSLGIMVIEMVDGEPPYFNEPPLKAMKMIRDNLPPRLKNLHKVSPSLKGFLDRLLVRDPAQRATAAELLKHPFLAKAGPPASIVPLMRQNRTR
# Chain of UniProt Q92918 (whole entry, looked up): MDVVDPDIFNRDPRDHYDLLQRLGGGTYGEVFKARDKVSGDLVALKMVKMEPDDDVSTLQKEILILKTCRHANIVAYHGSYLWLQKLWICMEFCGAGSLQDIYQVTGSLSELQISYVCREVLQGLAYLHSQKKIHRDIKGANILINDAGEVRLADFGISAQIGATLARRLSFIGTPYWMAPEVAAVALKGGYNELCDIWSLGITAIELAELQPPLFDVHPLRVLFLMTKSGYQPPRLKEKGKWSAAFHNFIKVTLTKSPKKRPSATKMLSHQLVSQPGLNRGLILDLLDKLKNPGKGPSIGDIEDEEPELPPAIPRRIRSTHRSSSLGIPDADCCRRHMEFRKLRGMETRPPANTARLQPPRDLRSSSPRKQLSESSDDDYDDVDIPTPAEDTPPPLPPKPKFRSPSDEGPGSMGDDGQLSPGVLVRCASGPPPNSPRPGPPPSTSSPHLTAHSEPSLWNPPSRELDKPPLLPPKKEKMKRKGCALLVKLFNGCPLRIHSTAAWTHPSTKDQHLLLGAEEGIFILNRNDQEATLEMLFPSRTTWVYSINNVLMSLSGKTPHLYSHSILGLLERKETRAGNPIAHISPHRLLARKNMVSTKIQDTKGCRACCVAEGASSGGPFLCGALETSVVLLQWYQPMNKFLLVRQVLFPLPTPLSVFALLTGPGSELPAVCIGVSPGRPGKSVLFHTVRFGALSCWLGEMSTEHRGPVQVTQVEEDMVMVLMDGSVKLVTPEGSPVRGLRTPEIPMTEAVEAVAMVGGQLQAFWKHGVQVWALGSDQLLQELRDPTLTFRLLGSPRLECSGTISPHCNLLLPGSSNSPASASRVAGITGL
# Chain of UniProt P32298 (whole entry, looked up): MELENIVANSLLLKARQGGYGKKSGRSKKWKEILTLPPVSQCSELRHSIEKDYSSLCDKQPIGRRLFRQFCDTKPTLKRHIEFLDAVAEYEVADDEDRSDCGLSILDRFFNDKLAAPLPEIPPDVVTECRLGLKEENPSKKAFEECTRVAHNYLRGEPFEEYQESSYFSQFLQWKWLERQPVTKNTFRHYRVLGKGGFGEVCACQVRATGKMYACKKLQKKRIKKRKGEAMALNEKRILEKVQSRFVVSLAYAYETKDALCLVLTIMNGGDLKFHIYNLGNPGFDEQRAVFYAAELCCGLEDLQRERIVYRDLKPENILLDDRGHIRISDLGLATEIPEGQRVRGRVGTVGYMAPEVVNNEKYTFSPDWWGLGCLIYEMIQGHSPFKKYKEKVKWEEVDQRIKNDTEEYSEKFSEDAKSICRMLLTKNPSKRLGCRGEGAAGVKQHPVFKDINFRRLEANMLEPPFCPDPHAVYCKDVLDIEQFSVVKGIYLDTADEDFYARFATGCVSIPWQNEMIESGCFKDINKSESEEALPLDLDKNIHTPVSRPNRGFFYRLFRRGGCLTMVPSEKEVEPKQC

# Study 1 — read-out: enzyme activity; action: inhibitor; concentration: 0.5 µM; relative to: control
# Target: Ephrin type-A receptor 1 (EPHA1, Homo sapiens, UniProt P21709)
# Chain of UniProt P21709 (whole entry, looked up): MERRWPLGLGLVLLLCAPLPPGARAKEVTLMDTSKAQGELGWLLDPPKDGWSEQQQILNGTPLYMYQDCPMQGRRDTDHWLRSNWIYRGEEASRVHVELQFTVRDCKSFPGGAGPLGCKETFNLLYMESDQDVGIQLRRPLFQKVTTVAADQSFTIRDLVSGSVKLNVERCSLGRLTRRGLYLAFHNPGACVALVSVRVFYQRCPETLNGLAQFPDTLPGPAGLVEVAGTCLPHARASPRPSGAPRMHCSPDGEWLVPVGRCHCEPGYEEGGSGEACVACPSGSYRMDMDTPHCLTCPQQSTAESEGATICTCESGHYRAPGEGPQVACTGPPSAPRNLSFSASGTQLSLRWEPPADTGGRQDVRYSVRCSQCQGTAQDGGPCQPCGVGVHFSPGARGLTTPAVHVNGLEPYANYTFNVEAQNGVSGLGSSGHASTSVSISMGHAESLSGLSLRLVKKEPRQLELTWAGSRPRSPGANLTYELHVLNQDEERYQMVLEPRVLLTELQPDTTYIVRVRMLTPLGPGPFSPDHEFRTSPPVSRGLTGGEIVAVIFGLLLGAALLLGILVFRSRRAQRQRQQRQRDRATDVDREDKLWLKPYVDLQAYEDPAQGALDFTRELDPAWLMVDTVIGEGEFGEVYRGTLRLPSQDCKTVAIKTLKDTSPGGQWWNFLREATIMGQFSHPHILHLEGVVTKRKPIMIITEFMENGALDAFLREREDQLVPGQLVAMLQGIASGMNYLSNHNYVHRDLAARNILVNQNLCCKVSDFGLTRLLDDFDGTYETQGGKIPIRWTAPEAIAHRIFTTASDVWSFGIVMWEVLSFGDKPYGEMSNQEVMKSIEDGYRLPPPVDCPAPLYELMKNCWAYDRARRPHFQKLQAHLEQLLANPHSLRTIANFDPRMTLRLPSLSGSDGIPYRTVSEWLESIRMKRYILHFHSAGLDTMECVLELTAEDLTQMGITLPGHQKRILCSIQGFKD
Compound,remaining activity [%]
Nc1ncnc2n[nH]c(Nc3ccc(F)cc3)c12,101
Cc1ccc(Nc2nccc(N(C)c3ccc4c(C)n(C)nc4c3)n2)cc1S(N)(=O)=O,85
Cc1nc(-c2ccccc2)c(-c2ccncc2)o1,93.8
COc1ccc(C(=O)Nc2sc3c(c2C(N)=O)CCCC3)cc1OC,88.1
C#Cc1cccc(Nc2ncnc3cc(OCCOC)c(OCCOC)cc23)c1,94.5
COc1ccc(OC)c2c(=S)c3ccccc3[nH]c12,89
O=C1NC(=O)C(c2cn(CCCO)c3ncccc23)=C1c1cnccn1,73.9
COc1ccc(CNC(=O)Nc2ncc([N+](=O)[O-])s2)cc1,107
CC(C)[C@H](CO)Nc1nc(Nc2cc(N)cc(Cl)c2)c2ncn(C(C)C)c2n1,76.9
N#CC(C#N)=C(N)/C(C#N)=C/c1ccc(O)cc1,103
O=C(Nc1cccc(Nc2cc(Nc3cccc(C(F)(F)F)c3)ncn2)c1)C1CC1,92.9
O=C1NC(=O)C(c2cn(CCCn3ccnc3)c3ccccc23)=C1Nc1ccccc1,101
Oc1ccc(-c2nc(-c3ccncc3)c(-c3ccc(F)cc3)[nH]2)cc1,94.4
Cn1c2ccccc2c2c3c(c4c5ccccc5n(CCC#N)c4c21)CNC3=O,81.6
CN(C)c1ccc(C=C2C(=O)Nc3ccccc32)cc1,93.7
Cc1ccc(NC(=O)c2ccc(CN3CCN(C)CC3)cc2)cc1Nc1nc(-c2cccnc2)cs1,96.5

# Study 2 — read-out: cell-free assay; method: competition with immobilised ligand; concentration: 1 µM
# Structure (SMILES): Cc1cc(-n2nc(Cc3cc(F)cc(C(F)(F)F)c3)nc2C)ccc1C(N)=O
target,remaining binding
"Mitogen-activated protein kinase kinase kinase 13 (MAP3K13, Homo sapiens, UniProt O43283)",100%
"NUAK family SNF1-like kinase 2 (NUAK2, Homo sapiens, UniProt Q9H093)",100%
"Phosphatidylinositol 4,5-bisphosphate 3-kinase catalytic subunit alpha isoform (PIK3CA, Homo sapiens, UniProt P42336, C420R)",93%
"Tyrosine-protein kinase receptor UFO (AXL, Homo sapiens, UniProt P30530)",99%
"Tyrosine-protein kinase ABL1, non-phosphorylated (ABL1, Homo sapiens, UniProt P00519, Q252H)",94%
"Mitogen-activated protein kinase 7 (MAPK7, Homo sapiens, UniProt Q13164)",100%
"Serine/threonine-protein kinase PAK 4 (PAK4, Homo sapiens, UniProt O96013)",100%
"Atypical kinase COQ8B, mitochondrial (COQ8B, Homo sapiens, UniProt Q96D53)",100%

# Study 3 — host: human; medium: microsomes or S9; concentration: 2 µM; time: 0.5 h
Compound,remaining compound [%]
CCOC(=O)c1cnc2nc(C3CCC3)nn2c1C,5.83
Cc1c(CN2CCOCC2)c(=O)n(-c2ccccc2)n1C,> 100
CN(C)S(=O)(=O)c1ccc(C(=O)Nc2ccncc2)o1,80.1
Cc1nc(NCC(C(C)C)N(C)C)c2nc(C)oc2n1 (stereo not shown),96
Cc1ccc(-c2cc(C(=O)Nc3ccc4c(c3)N(C)C(=O)CO4)no2)cc1,27.7
O=c1[nH]cnc2c1nnn2Cc1cc(F)cc(F)c1,89.1
COc1cccc(CNC(=O)N2Cc3c(sc4c3CCCC4)-n3cccc3C2C)c1 (stereo not shown),1.78

# Study 4 — read-out: kinase activity; action: inhibitor; concentration: 1 µM
# Compound: CC(C)S(=O)(=O)c1ccc2nccc(Nc3ccc4sc(C5CCCC5)nc4c3)c2c1
target,remaining activity [%]
"G protein-coupled receptor kinase 4 (GRK4, Homo sapiens, UniProt P32298)",110
"Mitogen-activated protein kinase kinase kinase kinase 1 (MAP4K1, Homo sapiens, UniProt Q92918)",100
"Dual specificity tyrosine-phosphorylation-regulated kinase 1A (DYRK1A, Homo sapiens, UniProt Q13627)",99.5

# Excerpt of the above (study 2):
target,remaining binding
"NUAK family SNF1-like kinase 2 (NUAK2, Homo sapiens, UniProt Q9H093)",100%
"Phosphatidylinositol 4,5-bisphosphate 3-kinase catalytic subunit alpha isoform (PIK3CA, Homo sapiens, UniProt P42336, C420R)",93%
"Tyrosine-protein kinase receptor UFO (AXL, Homo sapiens, UniProt P30530)",99%
"Tyrosine-protein kinase ABL1, non-phosphorylated (ABL1, Homo sapiens, UniProt P00519, Q252H)",94%
"Mitogen-activated protein kinase 7 (MAPK7, Homo sapiens, UniProt Q13164)",100%
"Serine/threonine-protein kinase PAK 4 (PAK4, Homo sapiens, UniProt O96013)",100%
